# Assay results gathered from unrelated publications.
# Numbered parts are unrelated; each lists some results of a single study. Changes are numbered by the printed parent chain.

# Sample 1 — method: protein-binding microarray; molecule type: double-stranded DNA, one strand shown; sample: in vitro; concentration: not given; direction: higher = stronger binding
# Target: Myc proto-oncogene protein, bHLH-zipper, MAX partner unstated (MYC, Homo sapiens, UniProt P01106, residues 368-449)
# Chain of UniProt P01106 (368-449, looked up): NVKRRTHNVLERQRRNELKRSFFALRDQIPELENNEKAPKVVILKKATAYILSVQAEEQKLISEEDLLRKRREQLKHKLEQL
# Notes: k-mer, scored over probes, only values ≥0.25
Oligonucleotide,E-score
GGTGGCGA,0.332
GCGTGGAA,0.408
CGCGAGGC,0.299
ACCACACC,0.292
CAGGTGGG,0.348
CATGTGTA,0.464
CCACGATA,0.289
ACTCGTGA,0.291

# Sample 2 — target: CCNA1, cyclin fold, Cln2 fusion (human); method: yeast growth competition, sequencing; sample: yeast; notes: weak parent motif; reference: not given; direction: higher = stronger binding; parent: viral docking peptide; KGVKRKLFAEDSS
Change,normalised enrichment score
K1A,0.679
F8C,0.507
R5P,0.195
L7Y,0.102
S12W,0.877
D11G,1.38
S12E,1.44
V3I,0.781
G2L,0.799
L7N,0.279
S12F,1.11
V3F,0.522
K4Y,0.00362
G2N,1.44

# Sample 3 — method: RNA Bind-n-Seq; molecule type: RNA; sample: in vitro; concentration: 20 nM; notes: 6-mer, flanks averaged, single round; with: 150 mM LiCl; reference: input library; direction: higher = stronger binding
# Target: TAR DNA-binding protein 43, full length, His tag (TARDBP, Homo sapiens, UniProt Q13148, residues 1-414)
Oligonucleotide,6-mer enrichment (R)
UUUAAU,1.1
AUGAUG,1.04
UGAUCU,0.873
CAUUUG,1
CCAGAG,0.921
GUGUGG,2.2
GAACUC,1.08
CUGGAA,0.88

# Sample 4 — method: RNAcompete; molecule type: RNA; sample: in vitro; concentration: 20 nM; notes: 7-mer, probes averaged, single round; reference: mean of 7-mers; direction: higher = stronger binding
# Target: PABPC1L2, full length, GST fusion (mouse, UniProt A0ABA7IW68)
# Residues (chain): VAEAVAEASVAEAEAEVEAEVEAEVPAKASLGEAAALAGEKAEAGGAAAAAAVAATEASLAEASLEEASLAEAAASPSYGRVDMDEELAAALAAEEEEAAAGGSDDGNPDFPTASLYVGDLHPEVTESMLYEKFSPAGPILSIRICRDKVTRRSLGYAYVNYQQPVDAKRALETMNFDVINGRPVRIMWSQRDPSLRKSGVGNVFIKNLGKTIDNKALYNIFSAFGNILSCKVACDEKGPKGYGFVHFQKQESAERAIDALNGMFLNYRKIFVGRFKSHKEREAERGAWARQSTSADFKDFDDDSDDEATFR
Oligonucleotide,7-mer Z-score
CGGUAAG,-0.168
UUAACUC,-0.369
UUACCCG,-0.175
GAGGGAG,0.26
UACUGGG,-0.148
UCUGCAC,-0.11
AGGACCA,0.18
ACGCUCU,-0.271
